Measurements collected from several papers.
A part holds a random share of what one study measured.

Block 1
Target: Histone acetyltransferase KAT6A, winged helix 2, GST fusion (KAT6A, Homo sapiens, UniProt Q92794, residues 85-181)
Technique: protein binding microarray
Form: double-stranded DNA, one strand shown
Medium: in vitro
Tested at: not given
Setting: 8-mer, flanks averaged, mean of 2 arrays, mostly near background
Relative to: not given
Direction: higher = stronger binding
Target sequence (chain): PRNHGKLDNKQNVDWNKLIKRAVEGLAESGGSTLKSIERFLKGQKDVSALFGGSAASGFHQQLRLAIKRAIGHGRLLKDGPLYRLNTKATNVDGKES
With `AGAACCGG` the E-score was -0.0796.
The E-score of `TAGACTGA` is reported as -0.16.
`CAGGTAGG` has an E-score of -0.155.
`AGGATTGG` has an E-score of -0.0642.
`CGCGTATC` has an E-score of -0.0979.

Block 2
Target: Interferon regulatory factor 3, full length, phosphomimetic (IRF3, Homo sapiens, UniProt Q14653, residues 1-427, S386D/S396D/S398D/S402D/T404D/S405D)
Sequence of UniProt Q14653 (whole entry, unmodified, looked up): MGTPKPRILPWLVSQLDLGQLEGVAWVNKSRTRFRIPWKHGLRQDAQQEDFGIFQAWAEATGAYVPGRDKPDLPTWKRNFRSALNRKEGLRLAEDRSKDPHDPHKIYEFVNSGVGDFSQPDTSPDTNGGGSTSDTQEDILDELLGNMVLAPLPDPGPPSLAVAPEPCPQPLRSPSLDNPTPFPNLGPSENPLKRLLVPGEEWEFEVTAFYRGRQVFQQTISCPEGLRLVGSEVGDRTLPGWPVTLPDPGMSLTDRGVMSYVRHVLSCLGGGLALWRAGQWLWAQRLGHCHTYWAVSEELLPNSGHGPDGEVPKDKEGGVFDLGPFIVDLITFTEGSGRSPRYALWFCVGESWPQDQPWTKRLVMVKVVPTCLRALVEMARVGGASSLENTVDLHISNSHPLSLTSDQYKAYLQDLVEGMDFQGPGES
Technique: protein-binding microarray
Form: double-stranded DNA, one strand shown
Medium: in vitro
Tested at: 2540 nM top
Setting: 60-bp whole probe
Added: salmon DNA 0.4 mg/ml
Relative to: random background probes
Direction: higher = stronger binding
Under “fitted relative affinity”, `GCCTAGCACGACGGTAACGACACTGGGGACGTGCTAGTCTTGATTCGCTTGACGCTGCTG` is recorded as -0.503 z-score.
For `GCCTAGCACGACGGTATCGGGTATCGGGATGTGCTAGTCTTGATTCGCTTGACGCTGCTG`, “fitted relative affinity” read 1.88 z-score.
`GCCTAGCACTTAGGTCTCGGACGGGGTTAGTGCTAGGTCTTGATTCGCTTGACGCTGCTG`: “fitted relative affinity” -0.626 z-score.
For `GCCTAGCACAGTTTATTTATTTTTACATTGTGCTAGGTCTTGATTCGCTTGACGCTGCTG`, “fitted relative affinity” read 1.14 z-score.

Block 3
Target: Sal-like protein 4, full length isoform A (SALL4, Homo sapiens, UniProt Q9UJQ4, residues 1-1053)
Sequence of UniProt Q9UJQ4 (whole entry, looked up): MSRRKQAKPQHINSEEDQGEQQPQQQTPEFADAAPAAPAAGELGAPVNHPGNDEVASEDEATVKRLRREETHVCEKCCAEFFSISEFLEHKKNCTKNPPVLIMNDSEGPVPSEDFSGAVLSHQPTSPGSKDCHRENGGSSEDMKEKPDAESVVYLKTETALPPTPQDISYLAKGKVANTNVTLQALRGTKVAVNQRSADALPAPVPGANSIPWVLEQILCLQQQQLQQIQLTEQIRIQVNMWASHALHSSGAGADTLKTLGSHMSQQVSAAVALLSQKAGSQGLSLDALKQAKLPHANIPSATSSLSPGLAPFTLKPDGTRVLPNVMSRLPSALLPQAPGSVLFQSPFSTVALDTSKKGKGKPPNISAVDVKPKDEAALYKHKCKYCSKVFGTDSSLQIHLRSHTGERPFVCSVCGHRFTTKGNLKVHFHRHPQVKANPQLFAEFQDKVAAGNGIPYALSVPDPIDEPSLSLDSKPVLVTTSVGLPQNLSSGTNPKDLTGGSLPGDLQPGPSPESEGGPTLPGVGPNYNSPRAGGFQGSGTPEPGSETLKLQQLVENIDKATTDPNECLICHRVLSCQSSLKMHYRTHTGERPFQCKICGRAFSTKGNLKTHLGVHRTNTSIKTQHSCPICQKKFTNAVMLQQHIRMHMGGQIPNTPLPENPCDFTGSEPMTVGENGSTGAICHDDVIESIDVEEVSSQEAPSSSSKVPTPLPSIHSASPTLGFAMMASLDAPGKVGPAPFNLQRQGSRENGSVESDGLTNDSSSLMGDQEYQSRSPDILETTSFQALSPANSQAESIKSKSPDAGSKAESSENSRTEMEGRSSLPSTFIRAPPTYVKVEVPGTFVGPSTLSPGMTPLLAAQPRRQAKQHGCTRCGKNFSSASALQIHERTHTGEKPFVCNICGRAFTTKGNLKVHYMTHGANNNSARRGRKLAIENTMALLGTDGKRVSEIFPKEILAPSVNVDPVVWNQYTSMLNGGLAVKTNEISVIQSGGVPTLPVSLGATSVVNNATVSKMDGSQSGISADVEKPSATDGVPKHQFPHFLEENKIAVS
Technique: universal PBM
Form: double-stranded DNA, one strand shown
Medium: in vitro
Tested at: 600 nM
Setting: 8-mer, flanks averaged, mean of replicates
Direction: higher = stronger binding
`ACCCCTTC` has an E-score of -0.121.
For `GCCGTCTA`, the E-score was -0.167.
`CTGGGGGA` gave an E-score of -0.228.
For `ACACGAGT`, the E-score was 0.0225.

Further values, each from its own experiment
`PhoQ, residues 284 288 289 292 302 303 SSYNSA` gave a fold induction of 4.49 (PhoP, residues 12 14 15 18 19 LFHKL (Escherichia coli, UniProt P23836); Sort-seq, item: YFP reporter; E. coli; PhoQ-PhoP variant library, added: 10 µM Mg2+; relative to: high Mg2+ state, higher = stronger signaling).

A few entries again (block 2):
`GCCTAGCACTTAGGTCTCGGACGGGGTTAGTGCTAGGTCTTGATTCGCTTGACGCTGCTG`: “fitted relative affinity” -0.626 z-score.
For `GCCTAGCACAGTTTATTTATTTTTACATTGTGCTAGGTCTTGATTCGCTTGACGCTGCTG`, “fitted relative affinity” read 1.14 z-score.
